Measurements pooled from the literature.
Numbered parts are unrelated; each lists some results of a single study. Positions count from the first letter of the parent shown.

Set 1
Target: Histone acetyltransferase KAT6A, both winged helices, GST fusion (KAT6A, Homo sapiens, UniProt Q92794, residues 1-181)
Technique: protein binding microarray
Form: double-stranded DNA, one strand shown
Medium: in vitro
Tested at: not given
Setting: 8-mer, flanks averaged, mean of 2 arrays, mostly near background
Relative to: not given
Direction: higher = stronger binding
Residues (chain): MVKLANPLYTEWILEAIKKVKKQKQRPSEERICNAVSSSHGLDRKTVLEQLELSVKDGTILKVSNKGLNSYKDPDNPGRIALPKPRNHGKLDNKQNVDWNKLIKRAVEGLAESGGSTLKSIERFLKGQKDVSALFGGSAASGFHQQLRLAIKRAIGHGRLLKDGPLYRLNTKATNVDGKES
| Oligonucleotide | E-score |
| --- | --- |
| AGTGAAAG | -0.0513 |
| CAAGAGTA | -0.175 |
| TCACGCGA | 0.193 |
| ACTAATTC | -0.0213 |
| CATGAGCC | -0.116 |
| CCCGCAGG | 0.211 |
| AGCGGTTC | 0.0999 |
| ATGTAGAC | -0.017 |
| AAACATAG | -0.0396 |
| GAGCGCTC | 0.342 |
| CGGCCGGC | 0.344 |
| CGCCATTA | 0.12 |
| CAAGTTCC | 0.00781 |
| ATACCCCC | -0.0771 |
| AGGTCTGG | -0.177 |
| AGCCAACC | 0.022 |
| CCGGTGAA | 0.221 |
| ACTCCATC | -0.0795 |
| AAGCCTAG | 0.0101 |
| ACATTAAA | -0.0902 |
| AGCAGTGA | -0.0656 |
| GGAATTAA | -0.052 |
| TCCGGGAA | 0.146 |
| AGCAGGCG | -0.00456 |

Set 2
Target: Interferon regulatory factor 5, full length, phosphomimetic (IRF5, Homo sapiens, UniProt Q13568-2, residues 1-514, S451D/S453D/S456D/S462D)
Technique: protein-binding microarray
Form: double-stranded DNA, one strand shown
Medium: in vitro
Tested at: 940 nM top
Setting: 60-bp whole probe
With: salmon DNA 0.4 mg/ml
Relative to: random background probes
Direction: higher = stronger binding
Shared flanks, not repeated: GCCTAGCAC … GTCTTGATTCGCTTGACGCTGCTG
| Oligonucleotide | fitted relative affinity |
| --- | --- |
| GGCGCTTTTTTTCCGAGTGAGTGCTAG | 0.674 z-score |
| GGCGGTATCCTACTGCTGACGTGCTAG | -0.186 z-score |
| TTCGATCTCAGTTTCGATTAGTGCTAG | 8.35 z-score |
| TCATTTCTATTTTCTGAACTGTGCTAG | 1.3 z-score |
| GACGATTTCAGACTGGAGACGTGCTAG | -0.271 z-score |
| TCTCCTACAGGTTCTCTGAGAGTGCTA | 0.731 z-score |
| GACGATTTCAGAATGGAGACGTGCTAG | -0.292 z-score |
| TTAGATATCAGTATCGCTTAGTGCTAG | 1.72 z-score |
| CCACTTTCACTTCTCCCTTTGTGCTAG | 6.16 z-score |
| TTAGGTGCCCTTTTCCTTTAGTGCTAG | 0.0251 z-score |
| GACGAAATGAGACTGGAGACGTGCTAG | -0.345 z-score |
| TTAGATCTCAGTATCCATTAGTGCTAG | 0.569 z-score |
| TCACCTCTAGGTTCTCTGACTGTGCTA | -0.0698 z-score |
| GACGGCATCCTTTTCCTGACGTGCTAG | -0.0999 z-score |
| TCAGCTCTGTGCATAGGACTGTGCTAG | -0.281 z-score |
| ACATCTCTCTTAAATAGGGACGTGCTA | 0.808 z-score |
| TTTGGTATCGACACTGGGTTAGTGCTA | 7.67 z-score |
| ATGGCTCTCTGGACTGTGTGTGTGCTA | 0.0585 z-score |
| CTTCCCCTCTCATTCCAATTGTGCTAG | 1.62 z-score |
| TTAGGCCTGGGTTTCGGTTAGTGCTAG | 7.05 z-score |
| TTAGAACGGAGTCTCGATTAGTGCTAG | 2.05 z-score |
| TCATAAATGATATATATCACTGTGCTA | 0.228 z-score |
| TTAGGTGTCGGTTTCGGTTAGTGCTAG | 7.76 z-score |
| TTAGGTTTCGGTATCGGTTAGTGCTAG | 15.5 z-score |
| TGGGCTACCTCTCTTAGAATGTGCTAG | -0.221 z-score |

Set 3
Target: ABI1, truncated, D143A, DHFR fusion (Arabidopsis thaliana)
Technique: DHFR PCA, deep sequencing
Medium: yeast
Setting: methotrexate growth selection, single substitutions
With: (+)-ABA 58 µM
Relative to: wild-type fitted maximum
Direction: higher = stronger binding
Starting sequence: PYL1, truncated, DHFR fusion (Arabidopsis thaliana); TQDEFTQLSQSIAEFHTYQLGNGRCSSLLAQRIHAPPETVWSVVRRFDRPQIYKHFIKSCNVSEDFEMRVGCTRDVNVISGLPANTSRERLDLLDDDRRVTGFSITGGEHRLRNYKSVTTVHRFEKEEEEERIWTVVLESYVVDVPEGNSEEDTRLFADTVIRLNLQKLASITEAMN
| Variant | relative binding score [%] |
| --- | --- |
| I57R | 1.93 |
| E125Q | 95.8 |
| Q10E | 102 |
| Q167E | 84 |
| F66M | 74.9 |
| V145M | 56.1 |
| L94M | 87.6 |
| P37F | 7.72 |
| G148T | 67.2 |
| S26P | -4.92 |
| S80F | 26.9 |
| F124L | 100 |
| T173I | 77.2 |
| C60I | 66.6 |
| F157S | 7.29 |

Set 4
Target: Prothrombin, mature alpha-thrombin (F2, Homo sapiens, UniProt P00734)
Technique: aptamer microarray, sandwich
Form: DNA with 2'F-ANA
Medium: in vitro
Tested at: 200 nM
Setting: whole 15-mer aptamer, many near background
With: Cy3 exosite-II aptamer, 400 nM
Direction: higher = stronger binding
Oligonucleotide: GGTTGGTGTGGTTGG
| Modification | mean fluorescence intensity |
| --- | --- |
| 2'F-ANA at 3 4 5 6 12 13 | 107 a.u. |
| 2'F-ANA at 2 4 5 10 11 12 13 14 15 | 153 a.u. |
| 2'F-ANA at 2 7 8 10 12 14 | 108 a.u. |
| 2'F-ANA at 1 7 8 9 11 14 | 230 a.u. |
| 2'F-ANA at 2 4 7 8 9 11 15 | 278 a.u. |
| 2'F-ANA at 5 7 11 12 13 | 110 a.u. |
| 2'F-ANA at 2 3 4 5 6 9 10 11 14 | 46.9 a.u. |
| 2'F-ANA at 1 3 4 5 6 7 8 11 12 13 14 | 48.4 a.u. |
| 2'F-ANA at 3 4 5 7 9 10 11 12 13 14 15 | 53.3 a.u. |
| 2'F-ANA at 3 4 6 8 10 | 268 a.u. |
| 2'F-ANA at 2 3 6 8 9 11 13 14 15 | 281 a.u. |
| 2'F-ANA at 4 6 7 10 14 | 60.1 a.u. |
| 2'F-ANA at 1 4 6 10 14 | 43.6 a.u. |
| 2'F-ANA at 1 3 4 8 9 12 14 15 | 252 a.u. |
| 2'F-ANA at 7 9 12 13 15 | 681 a.u. |
| 2'F-ANA at 2 7 9 10 14 15 | 90.7 a.u. |

Set 5
Target: RNA binding protein fox-1 homolog 2, RRM domain, GST-SBP tag (RBFOX2, Homo sapiens, UniProt O43251-10, residues 100-194)
Technique: RNA Bind-n-Seq
Form: RNA
Medium: in vitro
Tested at: 365 nM
Setting: natural RNA segment, single round, ends assumed
Relative to: no-protein control
Direction: higher = stronger binding
Target sequence (chain): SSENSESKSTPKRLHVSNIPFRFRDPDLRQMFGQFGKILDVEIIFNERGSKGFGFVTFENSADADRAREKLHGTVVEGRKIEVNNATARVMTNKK
| Oligonucleotide | RBNS enrichment (R) |
| --- | --- |
| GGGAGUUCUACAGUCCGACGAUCCAAGCUCUAAGACUCAAAGAAAUGGAACCUCUGCCCCAAACACUAGAGAAGCAGGAGAACAGACAAUCUGGUGUCCAGCCCUAAAGAACCACCAGGCGCUGUUAAGCAAUUGGAAUUCUCGGGUGCCAA | 0.25 |
| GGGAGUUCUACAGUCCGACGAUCCGGGACUUAAAUUUCACACUAGAAAUGAGCUCCAGUCUUAACUCAGUGAAUGGGAAACACAUGUUCCUCUCUCCAGGUUACACUGAAACCUGUGUAGUGUGUACAGAGUGUGGAAUUCUCGGGUGCCAA | 0.238 |
| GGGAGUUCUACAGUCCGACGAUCAUGGGACCAGGGCAGUCACCAGUGCCGAAGAGCGGUCCCCUUCGUGGAUAUCUGCUUCCAUGACAGAACCUCUUGAGCACGCAGAGGGAGUGGCCACACCGCCUGUUGGAUGGAAUUCUCGGGUGCCAA | 7.55 |
| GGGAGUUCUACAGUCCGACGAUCUGUCCAGCAUGACCCAUAAACAGGUCAGAAGAAUGAUGGAAUGUUUUAGAAUAAACUCCUGCUUAUAGUAUACUACACAGUUCAAAAGAUGUUUAAAAUGCUUUUGUAUUUGGAAUUCUCGGGUGCCAA | 2.9 |
| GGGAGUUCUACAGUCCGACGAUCCCCUCCAUGAAGUCAGUGCCAGAGUGAGCCAGAUUGGGAGGUUGGGGUUUUGUUUGGUUGGCUUGGUUUUCAUUAAGGGAAAAAACUUGCAUUGGACAAUCAAAUUCCCCUGGAAUUCUCGGGUGCCAA | 0.87 |
| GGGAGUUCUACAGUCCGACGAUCAUUAUUCCAUCCAAAAUUUCUGGUGAAUUACACAGAAAUUUUUGGAAAUGGGACUUUGUGCAGGUAACCACCCUGCACUUCAGGUAAUGUUCCUGUCACAGCUGUCGACUUGGAAUUCUCGGGUGCCAA | 0.264 |
| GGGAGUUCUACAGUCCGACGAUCGGACUCUGAACCAUGAUUGGAAGCAGAAAUAUAGUACGAUAGUGCAAUAGCUCAGAACCCGCCUAAACUGAAGGCCUUUUGGCUGCAUGGCUACAGCUUUCAGCCACUUAUGGAAUUCUCGGGUGCCAA | 0.423 |
| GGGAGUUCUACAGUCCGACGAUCGUGGGUGUGUGGAACGGGUCUGCUCUGCCUGCUUCUGUCUCUGUCUGGGUGUUUGAGUUCCAAAAAGUGUGUGGUGUUUGUUCCUCCUCAUCCUCUUCUGAGACUGUUGAUGGAAUUCUCGGGUGCCAA | 1.01 |
| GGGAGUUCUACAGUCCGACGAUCUGCUAGUCACAGCUGAAUAGCUUUGAGGAAGGAGGUGUGGCCCCCUCACACCCAGACACCCAGACACUUAACCACUCCUGCAAAGCAGAUAGAGCCUUCAGUUUGCCAUUUGGAAUUCUCGGGUGCCAA | 0.225 |
| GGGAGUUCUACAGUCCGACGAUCCCAGUCUCAUUCCUCCCCAGGAGUGAAACUUGCUUCAGCUGAAAAGGUUGGGUGCAUUGUCAGUAAAAAGGGCUUAUUUGUUUCAUUUUACUUUCCUGCAAAAUUUUCUUUGGAAUUCUCGGGUGCCAA | 0.208 |
| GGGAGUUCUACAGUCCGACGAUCCCAAGUGACUCAAGAUUUGGCAGCCCCAGAGAUGCCAACUGCAGCAUGCCCACCUGUAUUCCCUGUCCCCUUCCUUCAUGAAGGCAUCUCCAGGCAAGGAAAACUGAAGUUGGAAUUCUCGGGUGCCAA | 6.77 |
| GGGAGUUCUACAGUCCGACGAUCCACUUAAGUUAUUGUGUUAAACCAAAGUUUACAGUGUCUGUUGGUAGCAAGACCCCCUCCUCCCCUCUACCACCCCCCCCAAGGGUCCAGGGGUCCUACUCGCUUCCCCCUGGAAUUCUCGGGUGCCAA | 0.453 |

For quick reference, copied from above (set 4):
| Modification | mean fluorescence intensity |
| --- | --- |
| 2'F-ANA at 2 4 7 8 9 11 15 | 278 a.u. |
| 2'F-ANA at 2 7 9 10 14 15 | 90.7 a.u. |
| 2'F-ANA at 2 3 6 8 9 11 13 14 15 | 281 a.u. |
| 2'F-ANA at 4 6 7 10 14 | 60.1 a.u. |
| 2'F-ANA at 5 7 11 12 13 | 110 a.u. |
